Experimental data of several laboratories.
Compare with care: the assays were run in different laboratories. Values joined by “and” are separate records of one study, mostly repeats; a detail may differ. ± gives the spread as reported.

Compound = CCCC[C@H](NC(C)=O)C(=O)N[C@H]1CC(=O)NCCCC[C@@H](C(=O)N[C@@H](C(=O)N2CCC[C@@H]2C(N)=O)C(C)C)NC(=O)[C@H](Cc2c[nH]c3ccccc23)NC(=O)[C@H](CCCN=C(N)N)NC(=O)[C@@H](Cc2ccc3ccccc3c2)NC(=O)[C@@H]2CCCN2C1=O; test system = healthy dogs, plasma; setting = subcutaneous, 2.25 mg/kg per day, day 28, 4 h post-dose, median; endpoint = plasma histamine; value = 17.9 ng/mL
Compound = CCc1cc(Nc2nc(-c3ccc(-n4cnc(C)c4)c(F)c3)cs2)c(C)cc1C; test system = human, both sexes, plasma; setting = oral, 400 mg, day 1, multiple dose, geometric mean; endpoint = apparent terminal volume (Vz/F); value = 283000 mL
Compound = COCCOCCOCCOc1ccc(/C=C/C2=[N+]3C(=C(c4cc(OC)cc(OC)c4)c4c(C)c(I)c(/C=C/c5ccc(OCCOCCOCCOC)cc5)n4[B-]3(F)F)C(C)=C2I)cc1; test system = THF; endpoint = Stokes shift; value = 440 cm⁻¹
Compound = NCCC(=O)N1Cc2ccccc2-c2c(nnn2-c2cn(C3OC(CO)C(O)C3O)c(=O)[nH]c2=O)-c2ccccc21 (mixture of isomers); test = fluorescence lifetime; test system = methanol; endpoint = fractional contribution τ3; value = 0.11%
Compound = CCCC[C@H](NC(=O)[C@H](CC(C)C)N(C)C(=O)CNC(=O)[C@@H](NC(=O)[C@H](Cc1ccccc1)NC(=O)[C@H](CCCCN)NC(=O)[C@@H](N)CC(=O)O)C(C)C)C(N)=O; test system = anesthetized Gottingen minipig; setting = subcutaneous, 100 µg/kg; scale = baseline: baseline; endpoint = mean arterial pressure; value = -16 ± 10.2%
Compound = Cn1ncc2c1N(CCCCNC/C=C/C#N)c1cc(Cl)ccc1CC2.O=C(O)/C=C\C(=O)O; test system = mouse; setting = oral, 10 mg/kg; endpoint = mean residence time; value = ~6.5 h
Compound = CC[C@@H](C)N([11CH3])C(=O)c1nc(-c2ccccc2)c2ccccc2n1; test system = male rhesus monkey, plasma; setting = intravenous, baseline; endpoint = time to 50% parent radioligand; value = 26 min
Compound = CCCC[C@H](NC(=O)CNC(=O)CNC(=O)CN1CCN(CC(=O)O)CCN(CC(=O)O)CC1)C(=O)N[C@H]1CC(=O)NCCCC[C@@H](C(N)=O)NC(=O)[C@H](Cc2c[nH]c3ccccc23)NC(=O)[C@H](CCCNC(=N)N)NC(=O)[C@@H](Cc2ccccc2)NC(=O)[C@H](Cc2c[nH]cn2)NC1=O [gallium-67 labelled]; test system = C57 mice, female, B16/F1 melanoma, tumour over muscle; setting = intravenous, 0.037 MBq, 24 h; endpoint = tumour to tissue uptake ratio; value = 8.05
Compound = C[C@](C#N)(COc1cc(C#N)ccc1C(F)(F)F)NC(=O)c1ccc(S(=O)(=O)C(F)(F)F)cc1; test system = parasitized calves, plasma; setting = oral, 2.5 mg/kg of MNP; scale = baseline: compound over MNP; endpoint = AUC ratio; value = 6 and 5.99
Compound = CCCC(CCC)NC(=O)c1ccc(OC2OC(C(=O)O)C(O)C(O)C2O)c(OC)c1 (stereo not drawn); test = LC-MS extracted ion chromatogram; test system = Sprague-Dawley rat, male and female, pooled plasma; setting = oral, 200 mg/kg, 1 h; endpoint = peak area; value = 1.15e+07 cps
Compound = COc1cc2c(cc1OC)CN(CCCCn1ccc3cc(OCC[18F])ccc31)C2; test system = male CD-1 mouse, pancreas; setting = intravenous, 280 kBq, 1 h; endpoint = tracer uptake; value = 39.7 %ID/g
Compound = Cc1ccc(C(=O)N[C@@H](CO)CC(C)C)cc1CO; test = LC-MS; test system = Sprague-Dawley rats, pooled sexes, plasma; setting = oral, 100 mg/kg of parent drug, 1 h; scale = baseline: total metabolite peak area; endpoint = metabolite peak area; value = 5.88%
Compound = COc1ccc(-c2cc(=O)c3c(O)cc(O[C@@H]4O[C@H](CO[C@@H]5O[C@@H](C)[C@H](O)[C@@H](O)[C@H]5O)[C@@H](O)[C@H](O)[C@H]4O)cc3o2)cc1; test = freeze-thaw stability; test system = rat plasma; setting = 3 days, low QC, 3 freeze-thaw cycles; endpoint = measured concentration; value = 7.02 ± 0.73 ng/mL
Compound = C#CCOc1ccc(/C=C2\SC(=O)N(CC(=O)NCc3ccccc3)C2=O)cc1; test = inverse Kirkwood-Buff integrals; test system = binary solvent mixture; setting = concentration not given, 298.15 K, mole fraction x1 0.40; endpoint = correlation volume; value = 3510 cm³/mol
Compound = [11CH3]c1ccc2nc(C3CCC3)n(-c3ccc4[nH]ncc4c3)c2n1; test = extrapolated from mouse; test system = human male, heart wall; endpoint = absorbed dose; value = 4.4 µSv/MBq
Compound = C=CC(=O)Nc1cc(Nc2nccc(-c3cn(C4CC4)c4ccccc34)n2)c(OC)cc1NC; test = radio-HPLC; test system = human male, feces; setting = oral, 110 mg, 96 to 240 h, sample holds 16.61% dose; scale = baseline: sample radioactivity; endpoint = share of radioactivity; value = 1.35%
Compound = NC[C@@H](C(=O)Nc1ccc(-c2cn[nH]c2)cc1)c1ccccc1; test = OECD 405 eye irritation; test system = New Zealand White rabbit, eye; setting = topical, 0.1%, 73 h (day 4), scale 0 to 2; scale = direction not given; endpoint = iris score; value = 0
Compound = CC(C)c1cnc(-c2cc(Cl)ccc2F)cc1Nc1ccncc1C(=O)NC(CO)CO; test = monotherapy, item: rash; test system = human patients; setting = oral, dose not given, grade 3, phase I A; endpoint = patients with treatment-related adverse event; value = 0%
Compound = O=C([O-])CN1CCN(CC(=O)[O-])CCN(CC(=O)NCC2CCC(C(=O)NC(Cc3ccc4ccccc4c3)C(=O)NCCCCC(NC(=O)NC(CCC(=O)O)C(=O)O)C(=O)O)CC2)CCN(CC(=O)[O-])CC1.[44Sc+3] (stereo not drawn); test = PET/CT dosimetry, OLINDA/EXM; test system = human, spleen; endpoint = residence time; value = 0.053 h
Compound = O=C(NCCCN(CCCCN(CCCNC(=O)c1cccc(=O)n1[O-])C(=O)c1cccc(=O)n1[O-])C(=O)c1cccc(=O)n1[O-])c1cccc(=O)n1[O-].[89Zr+4]; test = radio-TLC; test system = PBS; setting = 5 d, pH 7.4, 37 °C, with: Ni^2+ 10-fold excess; endpoint = intact complex; value = 98.7 ± 1.9%
Compound = CCC(=O)N[C@@H](C)C(=O)OCC(=O)N[C@@H](C)C(=O)O; test system = water; setting = pH 4, 50 °C; endpoint = depolymerization half-life; value = 281 h
Compound = CCC(C)n1c(C(=O)Nc2cnc(C(=O)NC)n(CC(C)C)c2=O)ncc(NC(=O)c2ncc(NC(=O)c3ccccc3)c(=O)n2Cc2ccc(OC)cc2)c1=O (stereo not drawn); test = HPLC; test system = Tween 20/ethanol/phosphate buffer; setting = 24 h, pH 7.4, 37 °C; endpoint = decomposition; value = 0.7%
Compound = O=C(O)CN1CCNCCNCCN(C(C(=O)O)c2ccc(C(=O)O)cc2)CC1 (stereo not drawn); test = pH-potentiometric titration; setting = 25 °C, 0.1 M KCl; endpoint = sum log K3 + log K4; value = 7.9
Compound = CC(C)(C)NCC(SS(=O)(=O)O)c1ccccc1 (stereo not drawn); test system = Swiss Webster CFW mouse, female, plasma; setting = intravenous, 15 mg/kg, from 0 h to infinity; endpoint = MRT; value = 0.168 h
Compound = CC(C)(O)c1ncc([S@](N)(=O)=NC(=O)Nc2c3c(cc4c2CCC4)CCC3)s1; test system = healthy human volunteers, plasma; setting = oral, 600 mg single dose, fasted, spray-dried dispersion; endpoint = dose-normalised AUC(0-t); value = 1320 ng·h/mL/mg
Compound = CC=C1C(OC2OC(CO)C(O)C(O)C2O)OC=C(C(=O)OC)C1CC(=O)OCC1OC(OCCc2ccc(O)cc2)C(O)C(O)C1O (stereo not drawn); test system = pseudo-germfree tumour-bearing Balb/c mice, plasma; setting = oral, 109.2 mg/kg; endpoint = half-life; value = 1.09 h
Compound = CCCC[C@@H]1NC(=O)[C@@H](NC(=O)[C@H](CCC(=O)O)NC(=O)CNC(=O)CN2CCN(CC(=O)O)CCN(CC(=O)O)CCN(CC(=O)O)CC2)CCCCNC(=O)C[C@@H](C(N)=O)NC(=O)[C@H](C(C)C)NC(=O)[C@@H]2CCCN2C(=O)[C@H](CCCNC(=N)N)NC(=O)CNC(=O)[C@H](Cc2c[nH]c3ccccc23)NC(=O)[C@H](CCCNC(=N)N)NC(=O)[C@@H](Cc2ccccc2)NC(=O)[C@H](Cc2c[nH]cn2)NC(=O)[C@H](CCC(=O)O)NC1=O [gallium-67 labelled]; test system = C57 mice, B16/F10 lung metastases, blood; setting = intravenous, 0.037 MBq/mouse, 2 h; endpoint = tissue uptake; value = 0.21 ± 0.15 %ID/g
Compound = COC(=O)c1ccc(CCc2cc3cc4nc(c(OC)c5[nH]c(cc6nc(cc2[nH]3)CC6(C)C)cc5CCCNC(=O)OC(C)(C)C)C(=O)C4(C)C)cc1; test system = DMF; setting = room temperature; endpoint = Qy emission maximum; value = 686 nm
Compound = N=C(N)NCCC[C@@H]1NC(=O)[C@H](Cc2c[nH]c3ccccc23)NC(=O)[C@@H](CC2CCCCC2)NC(=O)[C@@H]2CCCN2C(=O)[C@@H](NC(=O)CCc2ccccc2)CCCNC1=O; test = two-compartment model; test system = C57BL/6J mouse, plasma plasma; setting = subcutaneous, 1 mg/kg single dose; endpoint = K21; value = 2.08 h⁻¹
Compound = C=CC(=C)CC[C@]1(C)[C@H](C)C[C@H](O)[C@@]23C(=C[C@H](OC(=O)C(C)C)C[C@@H]12)[C@@H](OC(C)=O)O[C@H]3OC(C)=O; test = haemolysis; setting = 500 µM; endpoint = haemolysis; value = 22.3%
Compound = CC12CC(c3ccc(S(C)(=O)=O)cc3)C3=C4CCC(=O)C=C4CCC3C1CCC2(O)C(F)(F)C(F)(F)F (stereo not drawn); test system = human, plasma; setting = intravenous microdose, 15.7 µg, median; endpoint = tlast; value = 215 h
Compound = Cn1c(=O)oc2ccc(-c3ccc(CC(C#N)NC(=O)C4CNCCCO4)c(F)c3)cc21 (stereo not drawn); test = item: macule; test system = human volunteers; setting = oral, dose not given; endpoint = treatment-related adverse event incidence; value = 3.3%
Compound = COC(=O)CN1CCN(CC(=O)OC)CCN(Cc2cc(-c3nc4ccccc4s3)cc(OC)c2O)CC1; test = UV-Vis pH titration; setting = 25 °C, ionic strength 0.1 M NaCl; endpoint = pKa4; value = 11.3
Compound = CC[C@@H](C)[C@@H](NC(=O)[C@@H](C)NC(=O)[C@@H](CCCCN)NC(=O)[C@@H](CC(C)C)NC(=O)[C@@H](C)NC(=O)[C@H](NC(=O)[C@@H](CCCCN)NC(=O)[C@@H](CC(C)C)NC(=O)[C@H](NC(=O)[C@@H](CCCCN)NC(=O)[C@@H](CCCCN)NC(=O)[C@@H](CCCCN)NC(=O)[C@@H](C)NC(=O)[C@@H](CCCCN)NC(=O)[C@@H](CO)NC(=O)[C@@H](Cc1ccccc1)NC(=O)[C@H](NC(=O)[C@@H](CCCCN)NC(=O)[C@@H](CC(C)C)NC(=O)[C@@H](Cc1ccccc1)NC(=O)[C@@H](CO)NC(=O)[C@@H](CCCCN)NC(=O)[C@@H](Cc1c[nH]c2ccccc12)NC(=O)[C@@H](CCCCN)NC(C)=O)[C@H](C)O)C(C)C)[C@H](C)O)C(=O)N[C@H](CO)C(=O)N[C@H](CCCCN)C(N)=O; test = circular dichroism; test system = benign aqueous buffer; setting = pH 7.0, 5 °C, at 222 nm; scale = negative is more helical; endpoint = mean residue molar ellipticity; value = 900 deg cm2/dmol
Compound = CC(C)C[C@@H]1NC(=O)[C@@H](Cc2ccccc2)NC(=O)[C@H](CCN)NC(=O)[C@@H](NC(=O)[C@H](CN)NC(=O)[C@@H](NC(=O)C(CCN)c2ccc3ccccc3c2)[C@@H](C)O)CCNC(=O)[C@H]([C@@H](C)O)NC(=O)[C@H](CCN)NC(=O)[C@H](CCN)NC1=O (stereo partly drawn); test system = CD-1 mouse male, kidney; setting = subcutaneous, 17.2 mg/kg, 4 h; endpoint = tissue concentration; value = 548000 ng/g
Compound = CCOc1ccc2c(c1)C(C)=CC(C)(C)N2c1cc(OCC)cc2c1NC(C)(C)C=C2C; test = HPLC-fluorescence; test system = Atlantic salmon, flesh; setting = oral, 50 mg/kg feed of ethoxyquin, 90 days; endpoint = residue concentration; value = 182 ng/g
Compound = CCCCCCCCCCCCCCCC(=O)N[C@@H](CCCCN)C(=O)N[C@@H](CCCCN)C(=O)N[C@@H](CO)C(=O)N[C@@H](CCCNC(=N)N)C(=O)N[C@@H](C)C(=O)N[C@@H](CC(C)C)C(=O)N[C@@H](Cc1ccccc1)C(N)=O; test system = cynomolgus monkey, female; setting = 10 mg/kg, day 5; endpoint = activated partial thromboplastin time; value = 27.3 ± 3.7 s
Compound = Nc1nccc(-c2cn(C3CC3)c3ccccc23)n1; test = LC-RAM/HRMS; test system = human male, plasma; setting = oral, 110 mg, 10 h; scale = baseline: total radioactivity; endpoint = share of radioactivity; value = 10.3%
Compound = C=C(c1cc(F)c(C(=O)O)c(F)c1)c1cc2c(cc1C)C(C)(C)CCC2(C)C; test system = Sprague-Dawley rat, male; setting = oral, 100 mg/kg, 3 h, sesame oil vehicle; endpoint = blood triglycerides; value = 123 ± 38.9 mg/dL
Compound = Cc1ccc(-c2ccc(-c3cc4sccc4o3)cn2)nc1; test = TCSPC; test system = EtOH; endpoint = fluorescence lifetime; value = 1.63 ns
Compound = C=CC(=O)Nc1cc(Nc2nccc(-n3ccc4nc(OC)ccc43)n2)c(OC)cc1N(C)CCN(C)C; test system = BALB/c nude mouse, H1975 intracranial tumour, brain tumour; setting = oral, 60 mg/kg, 1 h; endpoint = concentration; value = 5060 ng/g
Compound = C[N+](C)(C)CC(CC(=O)[O-])OC(=O)CCC(=O)Nc1ccn([C@@H]2O[C@H](CO)[C@@H](O)C2(F)F)c(=O)n1 (stereo partly drawn); test system = THU-treated rat plasma; setting = 125.00 ng/mL, 2 months, -80 °C, frozen storage, mid QC; endpoint = measured concentration; value = 111 ± 2.3 ng/mL
